Experimental data of several laboratories.
Numbers after ± are the reported error.
Method: steady-state kinetics
B1: enzyme S446A (Methanosarcina mazei, UniProt Q8PVB1); chain MSEQRSVPLREHLLALKPCRHGGLIQETSETYGIPENEILDFSANFNPLGSPFDYPENGLNFEDIIKKSCGKLLEYPDNRYVEFREAAARFVGLGVTPQSIVPGNGSTEIVRLVVESVIEKGDKVLLPWPTFGEYEMQCRITGAEPVCPSQEEVNTLPDEVLEEAKILFICNPNNPTGKLRTREELKVLAERCREHKTLLYVDEAFIELSDPSQSVADLPAENNYVFVMRSLTKDFAIPGIRMGFGIAPPAMADILNTARLSWNLGAIANNTGIALLNIEGGIDSPYLKKAREMILKEGETLKAKIDRIRGFEAGEVNVNFILVDVSKFMLNSSELTARLAARGVLVRDCVSFHGLGKNYIRVAVRTEKENDRLIAAIGDVITEWGREQAKNELQHVIEKASEEGIGGRKTCEYYPCHFEGQNCTFCFCPFYPCENEKTGGKWIQASRGGRVWSCVDCHLVHKKEIAQKILDCLMHEGDTDELVKVAWKEVMEPIL
B2: RABE1C (Arabidopsis thaliana, UniProt P28186); chain MAAPPARARADYDYLIKLLLIGDSGVGKSCLLLRFSDGSFTTSFITTIGIDFKIRTIELDGKRIKLQIWDTAGQERFRTITTAYYRGAMGILLVYDVTDESSFNNIRNWIRNIEQHASDNVNKILVGNKADMDESKRAVPTAKGQALADEYGIKFFETSAKTNLNVEEVFFSIGRDIKQRLSDTDSRAEPATIKISQTDQAAGAGQATQKSACCGT
B3: SABP2 (Nicotiana tabacum, UniProt Q6RYA0); chain MKEGKHFVLVHGACHGGWSWYKLKPLLEAAGHKVTALDLAASGTDLRKIEELRTLYDYTLPLMELMESLSADEKVILVGHSLGGMNLGLAMEKYPQKIYAAVFLAAFMPDSVHNSSFVLEQYNERTPAENWLDTQFLPYGSPEEPLTSMFFGPKFLAHKLYQLCSPEDLALASSLVRPSSLFMEDLSKAKYFTDERFGSVKRVYIVCTEDKGIPEEFQRWQIDNIGVTEAIEIKGADHMAMLCEPQKLCASLLEIAHKYN
B4: enzyme (Mycosarcoma maydis, UniProt A0A0U2UYC4); chain MAPALNANPTTKRDELSAPSASHKLGMSSMASRAAGGGLKLTGLPDLSDSAGTLSDIFGTPQMREIWSDQNRVACYLEIEAALAIVQADLGIIPKNAAHEIVEHCRVQEIDWALYKQKTELIGYPVLGIVQQLVANCKDGLGEYCHWGATTQDITDTATVMQIRQSLTLVKQRLDSIVSSLEHLAEQHRNVPMAARSNLKQAVPITFGFKMARFLATFRRHQQRLVELEKRVYTLEFGGAAGNLSSLGDQGIATHDALAKMLDLAPAEIAWHTEHDRFAEVGTFLGLLTGTLAKLATDIKLMSQTEVGEVGEPFISNRGSSSTMPQKNNPISCVYIHACAANVRQGAAALLDAMQSDHERGTGPWEIIWVQLPLMMNWTSAALNNADFVLRGLQVFPDAMQHNLDLSKGLIVSEAVMMGLGNTLGRQYAHDAVYECCRTAFVQDRPLLDVLLENHEIASKLDRTELEKLCDPANYLGQCSQWIDRVLSRPSSA
B5: enzyme (Haliscomenobacter hydrossis, UniProt F4KU78); chain MKQKPAFIPYAGAQFEPEEMLSKSAEYYQFMDHRRTVREFSNRAIPLEVIENIVMTASTAPSGAHKQPWTFVVVSDPQIKAKIRQAAEKEEFESYNGRMSNEWLEDLQPFGTDWHKPFLEIAPYLIVVFRKAYDVLPDGTQRKNYYVQESVGIACGFLLAAIHQAGLVALTHTPSPMNFLQKILQRPENERPFLLVPVGYPAEGAMVPDLQRKDKAAVMVVY
B6: enzyme S252E/S281E/S285E/S287E (Schizosaccharomyces pombe, UniProt P78804); chain MSTPYEPEFQQAYKEIVGSIESSKLFEVHPELKRVLPIISIPERVLEFRVTWEDDKGNCRVNTGYRVQFNSALGPYKGGLRFHPSVNLSILKFLGFEQIFKNALTGLPMGGGKGGSDFDPKGKSDNEIRRFSQAFMRQLFRYIGPQTDVPAGDIGVTGFVVMHMFGEYKRLRNEYSGVVTGKHMLTGGSNIRPEATGYGVVYYVKHMIEHRTKGAETLKGKRVAISGSGNVAQYAALKCIQEGAIVKSISDEKGVLIAKTAEGLVPEEIHEIMALKEKRAEIADEAELCKKHHYIAGARPWTNVGEIDIALPCATQNEVSGEEAAALIKQGCRYVAEGSNMGSSAEAVEVFEKSRASGEGCWLAPGKAANAGGVAVSGLEMAQNAQFSTWTHAEVDAKLAGIMQNIFEQSTDVASKYCDSGSNNIPSLVDGANIAGFLKVATAMQAVGDWW
B7: aspC A106G/A218G/F210I/I29V/I33V/I68L/I71L/N30D/N64T/S135A/T100S/V136I/V375I (Escherichia coli, UniProt P00509); chain MFENITAAPADPILGLADLFRADERPGKVDLGVGVYKDETGKTPVLTSVKKAEQYLLENETTKTYLGLDGLPEFGRCTQELLFGKGSALINDKRARTAQSPGGTGGLRVAADFLAKNTSVKRVWVSNPSWPNHKAIFNSAGLEVREYAYYDAENHTLDFDALINSLNEAQAGDVVLFHGCCHNPTGIDPTLEQWQTLAQLSVEKGWLPLIDFAYQGFGRGLEEDAEGLRAFAAMHKELIVASSYSKNFGLYNERVGACTLVAADSETVDRAFSQMKAAIRANYSNPPAHGASVVATILSNDALRAIWEQELTDMRQRIQRMRQLFVNTLQEKGANRDFSFIIKQNGMFSFSGLTKEQVLRLREEFGVYAVASGRINVAGMTPDNMAPLCEAIVAVL
B8: NUDT12 (Homo sapiens, UniProt Q9BQG2); chain MSSVKRSLKQEIVTQFHCSAAEGDIAKLTGILSHSPSLLNETSENGWTALMYAARNGHPEIVQFLLEKGCDRSIVNKSRQTALDIAVFWGYKHIANLLATAKGGKKPWFLTNEVEECENYFSKTLLDRKSEKRNNSDWLLAKESHPATVFILFSDLNPLVTLGGNKESFQQPEVRLCQLNYTDIKDYLAQPEKITLIFLGVELEIKDKLLNYAGEVPREEEDGLVAWFALGIDPIAAEEFKQRHENCYFLHPPMPALLQLKEKEAGVVAQARSVLAWHSRYKFCPTCGNATKIEEGGYKRLCLKEDCPSLNGVHNTSYPRVDPVVIMQVIHPDGTKCLLGRQKRFPPGMFTCLAGFIEPGETIEDAVRREVEEESGVKVGHVQYVACQPWPMPSSLMIGCLALAVSTEIKVDKNEIEDARWFTREQVLDVLTKGKQQAFFVPPSRAIAHQLIKHWIRINPNL
B9: enzyme (UniProt I4BTU9); chain MISLDDIRQARERIGSWIHRTPIFSSATFSRMAGNEVYLKAENLQKSGAFKFRGAMNFMLSMSDDERKRGVVTGSSGNHGQALACAAKLLGVKAVVVVPLDASPAKVAAIEGYGAKVERCGHSSTERIAKAMEIAENLGMTFVPPFDHPWIMAGQGTAGLEIAEDMQDVDAVLVPCGGCGLISGVATALKESLKGVKVYGVEPETSNSTYLSFKAGRIVELHDIHTIADGLRTASPGSITFPVVQRYVDDILLVSEEEIRNAMVLLLERAKLLVEPSGAVPAAALLYGKVPLKGKRVVALLSGGNVDLAALCKWIEEVRTGN
B10: enzyme (Azotobacter vinelandii, UniProt C1DN94); chain MSESPLRLDRLRDFVSALGELLDRHPDEESVLREGRSLLGELVRHDDWLPEEFAQPDPERYQQYLLHADSRQRFSVVSFVWGPGQTTPVHDHRVWGLIGMLRGAEDAQSFELGAEGLRPIGDPVRLSPGQVEAVSPRIGDIHRVFNASPDQPSISIHVYGANIGAVRRAVYLPDGSEKPFISGYSNQFLPNIWDQSKESARP
B11: enzyme L71Q/Y136L (Bradyrhizobium diazoefficiens, UniProt Q45222); chain MIQTERAVQQVLEWGRSLTGFADEHAVEAVRGGQYILQRIHPSLRGTSARTGRDPQDETLIVTFYRELALQFWLDDCNDLGLISPEQLAAVEQALGQGVPCALPGFEGCAVLRASLATLAYDRRDYAQLLDDTRCLSAALRAGHAQAVAAERWSYAEYLHNGIDSIAYANVFCCLSLLWGLDMATLRARPAFRQVLRLISAIGRLQNDLHGCDKDRSAGEADNAVILLLQRYPAMPVVEFLNDELAGHTRMLHRVMAEERFPAPWGPLIEAMAAIRVQYYRTSTSRYRSDAVRGGQRAPA
Chain of UniProt P27707 (whole entry, looked up): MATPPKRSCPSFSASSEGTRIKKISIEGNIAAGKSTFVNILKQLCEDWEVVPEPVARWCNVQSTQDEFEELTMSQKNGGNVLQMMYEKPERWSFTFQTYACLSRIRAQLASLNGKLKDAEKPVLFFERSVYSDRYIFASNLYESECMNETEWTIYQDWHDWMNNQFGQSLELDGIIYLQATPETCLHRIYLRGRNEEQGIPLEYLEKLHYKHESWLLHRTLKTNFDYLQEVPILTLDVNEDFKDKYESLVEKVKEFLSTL
Chain of UniProt P26208 (whole entry, looked up): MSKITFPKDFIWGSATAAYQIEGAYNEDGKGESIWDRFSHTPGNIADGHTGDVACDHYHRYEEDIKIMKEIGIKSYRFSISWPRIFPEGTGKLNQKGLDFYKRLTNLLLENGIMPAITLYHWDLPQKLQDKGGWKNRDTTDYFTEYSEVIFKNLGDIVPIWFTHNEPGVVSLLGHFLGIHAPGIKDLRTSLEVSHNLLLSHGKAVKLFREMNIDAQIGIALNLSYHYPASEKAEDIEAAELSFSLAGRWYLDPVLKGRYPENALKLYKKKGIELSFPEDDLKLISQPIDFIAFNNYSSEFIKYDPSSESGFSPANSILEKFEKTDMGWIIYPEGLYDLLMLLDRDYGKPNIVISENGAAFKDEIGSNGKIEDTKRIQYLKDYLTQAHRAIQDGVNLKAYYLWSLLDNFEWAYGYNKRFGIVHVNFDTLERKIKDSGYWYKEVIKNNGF

Substance = B1 (enzyme S446A); substrate = Nc1ncnc2c1ncn2[C@@H]1O[C@H](COP(=O)(O)OP(=O)(O)OP(=O)(O)O)[C@@H](O)[C@H]1O; conditions = pH 8.5, 25 °C, apparent, anoxic, added: L-Thr 10 mM; kcat = 0.009 ± 0.001 s⁻¹
Substance = B2 (RABE1C); substrate = Nc1nc2c(ncn2[C@@H]2O[C@H](COP(=O)(O)OP(=O)(O)OP(=O)(O)O)[C@@H](O)[C@H]2O)c(=O)[nH]1; conditions = pH 7.5, 30 °C; kcat = 0.029 s⁻¹
Substance = gdh N97F (Bacillus subtilis); substrate = NC(=O)c1ccc[n+]([C@@H]2O[C@H](COP(=O)(O)OP(=O)(O)OC[C@H]3O[C@@H](n4cnc5c(N)ncnc54)[C@H](O)[C@@H]3O)[C@@H](O)[C@H]2O)c1; conditions = pH 8, 55 °C; kcat = 23.9 ± 0.883 s⁻¹
Substance = bglA (Acetivibrio thermocellus, UniProt P26208); substrate = O=[N+]([O-])c1ccc(O[C@@H]2OC[C@H](O)[C@H](O)[C@H]2O)cc1; conditions = pH 5.5, 60 °C; kcat = 5.02 ± 0.13 s⁻¹
Substance = B3 (SABP2); substrate = CC(=O)Oc1ccc([N+](=O)[O-])cc1; conditions = pH 7.2, 22 °C; kcat = 2.23 ± 0.0667 s⁻¹
Substance = enzyme (Thermothielavioides terrestris, UniProt G2R650); substrate = Oc1cc(O)cc(/C=C/c2ccc(O)c(O)c2)c1; conditions = pH 8, 45 °C; kcat = 0.772 ± 0.028 s⁻¹
Substance = B4 (enzyme); substrate = O=C(O)/C=C(\CC(=O)O)C(=O)O; conditions = pH 5.5, 37 °C; kcat = 38.3 ± 4.01 s⁻¹
Substance = B5 (enzyme); substrate = N[C@@H](Cc1ccc(O)c(I)c1)C(=O)O; conditions = pH 7.4, 25 °C, added: dithionite; kcat = 0.28 ± 0.03 s⁻¹
Substance = B6 (enzyme S252E/S281E/S285E/S287E); substrate = NC(=O)c1ccc[n+]([C@@H]2O[C@H](COP(=O)(O)OP(=O)(O)OC[C@H]3O[C@@H](n4cnc5c(N)ncnc54)[C@H](O)[C@@H]3O)[C@@H](O)[C@H]2O)c1; conditions = pH 7, 30 °C, apparent; kcat = 0.26 ± 0.01 s⁻¹
Substance = B7; substrate = N[C@@H](CC(=O)O)C(=O)O; conditions = pH 7.5, 25 °C, added: PLP 20 µM; kcat = 51 s⁻¹
Substance = DCK (Homo sapiens, UniProt P27707); substrate = Nc1ccn([C@@H]2O[C@H](CO)[C@@H](O)C2(F)F)c(=O)n1; conditions = pH 7.6, per site; kcat = 0.152 s⁻¹
Substance = B8 (NUDT12); substrate = Nc1ncnc2c1ncn2[C@@H]1O[C@H](COP(=O)(O)OP(=O)(O)OP(=O)(O)OP(=O)(O)OP(=O)(O)OC[C@H]2O[C@@H](n3cnc4c(N)ncnc43)[C@H](O)[C@@H]2O)[C@@H](O)[C@H]1O; conditions = added: Mg2+; kcat = 0.011 ± 0.003 s⁻¹
Substance = acsA D449E/I222V (Pseudomonas chlororaphis); substrate = CCCC(=O)O; conditions = pH 7; kcat = 0.1683 ± 0.00167 s⁻¹
Substance = B9 (enzyme); substrate = N[C@@H](CO)C(=O)O; conditions = pH 8, 30 °C; kcat = 0.0845 ± 0.0011 s⁻¹
Substance = enzyme (Chlorobaculum tepidum, UniProt Q8KC02); substrate = CC(=O)C(=O)O; conditions = pH 7.5, 30 °C; kcat = 6.767 ± 0.02 s⁻¹
Substance = enzyme (Pseudanabaena biceps, UniProt L8N0N6); substrate = NC(=O)c1ccc[n+]([C@@H]2O[C@H](COP(=O)(O)OP(=O)(O)OC[C@H]3O[C@@H](n4cnc5c(N)ncnc54)[C@H](O)[C@@H]3O)[C@@H](O)[C@H]2O)c1; conditions = pH 7.4, 30 °C, apparent, cofactor varied; kcat = 6.32 ± 0.6 s⁻¹
Substance = enzyme (Bacteroides ovatus, UniProt A0ABU3IP51); substrate = O=[N+]([O-])c1ccc(O[C@H]2O[C@H](CO)[C@@H](O)[C@H](O)[C@H]2O)cc1; conditions = pH 6.6; kcat = 51.2 ± 2.8 s⁻¹
Substance = B10 (enzyme); substrate = NCCS; conditions = pH 8, 25 °C, added: O2; kcat = 0.29 ± 0.08 s⁻¹
Substance = B11 (enzyme L71Q/Y136L); substrate = C=C1CC[C@@H]2C(C)(C)CCC[C@@]2(C)[C@@H]1CC/C(C)=C/COP(=O)(O)OP(=O)(O)O; kcat = 0.04 ± 0.00233 s⁻¹

Excerpt of the above:
Substance = gdh N97F (Bacillus subtilis); substrate = NC(=O)c1ccc[n+]([C@@H]2O[C@H](COP(=O)(O)OP(=O)(O)OC[C@H]3O[C@@H](n4cnc5c(N)ncnc54)[C@H](O)[C@@H]3O)[C@@H](O)[C@H]2O)c1; conditions = pH 8, 55 °C; kcat = 23.9 ± 0.883 s⁻¹
